# Measured values from different studies.
# A part holds a random share of what one study measured.
# Chain of UniProt P11362 (whole entry, looked up): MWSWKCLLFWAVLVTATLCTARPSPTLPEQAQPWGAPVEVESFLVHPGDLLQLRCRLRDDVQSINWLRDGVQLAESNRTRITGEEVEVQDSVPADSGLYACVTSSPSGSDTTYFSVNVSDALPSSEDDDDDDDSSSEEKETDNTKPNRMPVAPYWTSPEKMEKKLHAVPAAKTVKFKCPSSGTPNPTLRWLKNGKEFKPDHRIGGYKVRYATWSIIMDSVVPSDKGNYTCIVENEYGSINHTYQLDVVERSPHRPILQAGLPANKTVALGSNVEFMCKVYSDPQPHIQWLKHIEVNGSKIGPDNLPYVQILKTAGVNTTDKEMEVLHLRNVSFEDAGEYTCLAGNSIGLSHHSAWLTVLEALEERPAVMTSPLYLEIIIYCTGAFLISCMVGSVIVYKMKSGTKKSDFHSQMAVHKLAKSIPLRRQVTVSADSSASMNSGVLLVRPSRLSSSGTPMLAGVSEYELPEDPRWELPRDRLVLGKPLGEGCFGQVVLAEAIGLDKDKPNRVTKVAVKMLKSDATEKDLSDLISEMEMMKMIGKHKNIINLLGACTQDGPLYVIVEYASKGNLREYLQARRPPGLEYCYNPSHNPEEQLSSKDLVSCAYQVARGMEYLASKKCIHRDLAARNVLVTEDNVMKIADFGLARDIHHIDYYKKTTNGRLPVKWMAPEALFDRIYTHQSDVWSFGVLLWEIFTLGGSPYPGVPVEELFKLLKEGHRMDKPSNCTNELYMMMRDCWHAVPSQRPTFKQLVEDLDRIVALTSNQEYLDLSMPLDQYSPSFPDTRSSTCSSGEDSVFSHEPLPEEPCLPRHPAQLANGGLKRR
# Chain of UniProt Q9Y6M4 (whole entry, looked up): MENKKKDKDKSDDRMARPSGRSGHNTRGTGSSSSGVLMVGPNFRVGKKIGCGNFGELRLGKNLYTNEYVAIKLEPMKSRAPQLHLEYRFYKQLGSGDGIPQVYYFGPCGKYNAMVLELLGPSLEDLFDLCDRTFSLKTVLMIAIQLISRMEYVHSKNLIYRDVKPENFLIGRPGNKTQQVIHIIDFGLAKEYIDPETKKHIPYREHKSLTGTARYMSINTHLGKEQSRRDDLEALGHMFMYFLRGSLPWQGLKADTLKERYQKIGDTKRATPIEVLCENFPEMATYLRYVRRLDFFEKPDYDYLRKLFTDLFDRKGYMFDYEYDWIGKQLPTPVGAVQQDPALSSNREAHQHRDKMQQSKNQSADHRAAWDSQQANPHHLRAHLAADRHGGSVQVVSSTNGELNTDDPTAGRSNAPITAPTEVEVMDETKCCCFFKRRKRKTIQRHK
# Chain of UniProt Q04912 (whole entry, looked up): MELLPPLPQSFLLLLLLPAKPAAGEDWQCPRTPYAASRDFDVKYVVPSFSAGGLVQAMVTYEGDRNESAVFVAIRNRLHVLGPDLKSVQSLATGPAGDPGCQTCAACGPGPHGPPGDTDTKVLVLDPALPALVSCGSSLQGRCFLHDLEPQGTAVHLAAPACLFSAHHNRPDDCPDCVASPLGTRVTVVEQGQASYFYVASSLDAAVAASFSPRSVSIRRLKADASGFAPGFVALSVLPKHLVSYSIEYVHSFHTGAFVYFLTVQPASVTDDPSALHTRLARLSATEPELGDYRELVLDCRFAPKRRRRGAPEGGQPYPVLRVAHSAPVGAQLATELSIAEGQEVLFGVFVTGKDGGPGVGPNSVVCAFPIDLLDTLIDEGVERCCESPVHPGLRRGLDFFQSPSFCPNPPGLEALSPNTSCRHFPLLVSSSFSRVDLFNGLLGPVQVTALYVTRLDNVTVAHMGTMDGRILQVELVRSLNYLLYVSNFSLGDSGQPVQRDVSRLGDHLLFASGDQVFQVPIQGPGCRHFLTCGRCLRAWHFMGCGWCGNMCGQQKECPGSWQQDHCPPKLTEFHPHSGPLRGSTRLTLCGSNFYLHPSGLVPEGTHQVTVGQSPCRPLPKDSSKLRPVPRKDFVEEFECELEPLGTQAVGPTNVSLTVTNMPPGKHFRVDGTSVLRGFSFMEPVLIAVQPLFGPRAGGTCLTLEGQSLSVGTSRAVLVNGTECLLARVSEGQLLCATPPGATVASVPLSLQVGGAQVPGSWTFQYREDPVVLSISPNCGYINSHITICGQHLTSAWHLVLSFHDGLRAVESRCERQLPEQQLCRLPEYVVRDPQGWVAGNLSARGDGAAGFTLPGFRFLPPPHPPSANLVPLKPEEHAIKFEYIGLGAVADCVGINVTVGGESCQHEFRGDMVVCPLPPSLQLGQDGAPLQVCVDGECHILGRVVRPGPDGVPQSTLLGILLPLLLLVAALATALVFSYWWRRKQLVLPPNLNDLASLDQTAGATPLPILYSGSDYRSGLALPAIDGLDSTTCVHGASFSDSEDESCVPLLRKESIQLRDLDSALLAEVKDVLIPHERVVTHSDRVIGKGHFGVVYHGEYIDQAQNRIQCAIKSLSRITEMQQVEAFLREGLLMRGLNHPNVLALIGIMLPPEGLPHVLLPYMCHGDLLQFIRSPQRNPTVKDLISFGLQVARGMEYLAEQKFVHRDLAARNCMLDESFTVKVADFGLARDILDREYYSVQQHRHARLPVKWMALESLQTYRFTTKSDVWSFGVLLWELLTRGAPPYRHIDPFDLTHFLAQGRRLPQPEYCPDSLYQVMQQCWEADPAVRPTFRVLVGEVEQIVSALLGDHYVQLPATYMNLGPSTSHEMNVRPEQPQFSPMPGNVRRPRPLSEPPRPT
# Chain of UniProt P29320 (whole entry, looked up): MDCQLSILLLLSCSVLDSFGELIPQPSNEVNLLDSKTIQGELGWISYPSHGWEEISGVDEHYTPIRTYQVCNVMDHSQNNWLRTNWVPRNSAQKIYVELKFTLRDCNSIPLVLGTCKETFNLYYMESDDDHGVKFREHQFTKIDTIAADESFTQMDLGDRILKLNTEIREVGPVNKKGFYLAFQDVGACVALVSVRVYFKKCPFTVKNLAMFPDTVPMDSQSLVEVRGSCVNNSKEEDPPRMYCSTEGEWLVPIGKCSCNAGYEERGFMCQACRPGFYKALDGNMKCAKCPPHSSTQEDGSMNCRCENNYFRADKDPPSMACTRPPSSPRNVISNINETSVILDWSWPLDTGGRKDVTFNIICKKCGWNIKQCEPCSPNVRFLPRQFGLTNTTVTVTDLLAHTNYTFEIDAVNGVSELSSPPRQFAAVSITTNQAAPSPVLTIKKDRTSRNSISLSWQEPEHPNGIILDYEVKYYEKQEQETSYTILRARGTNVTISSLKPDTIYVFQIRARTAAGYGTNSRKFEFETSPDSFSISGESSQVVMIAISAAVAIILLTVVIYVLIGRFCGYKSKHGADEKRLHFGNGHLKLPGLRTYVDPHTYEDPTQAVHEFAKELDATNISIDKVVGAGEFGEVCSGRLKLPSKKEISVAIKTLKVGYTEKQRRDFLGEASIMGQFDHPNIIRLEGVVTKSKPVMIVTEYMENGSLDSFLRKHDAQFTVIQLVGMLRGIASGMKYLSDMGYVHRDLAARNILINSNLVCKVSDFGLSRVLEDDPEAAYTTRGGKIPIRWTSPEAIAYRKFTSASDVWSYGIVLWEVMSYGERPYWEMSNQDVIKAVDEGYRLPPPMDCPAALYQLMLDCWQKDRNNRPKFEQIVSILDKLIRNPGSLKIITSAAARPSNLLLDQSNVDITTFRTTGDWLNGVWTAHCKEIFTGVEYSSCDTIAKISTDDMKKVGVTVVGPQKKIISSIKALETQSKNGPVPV
# Chain of UniProt Q14012 (whole entry, looked up): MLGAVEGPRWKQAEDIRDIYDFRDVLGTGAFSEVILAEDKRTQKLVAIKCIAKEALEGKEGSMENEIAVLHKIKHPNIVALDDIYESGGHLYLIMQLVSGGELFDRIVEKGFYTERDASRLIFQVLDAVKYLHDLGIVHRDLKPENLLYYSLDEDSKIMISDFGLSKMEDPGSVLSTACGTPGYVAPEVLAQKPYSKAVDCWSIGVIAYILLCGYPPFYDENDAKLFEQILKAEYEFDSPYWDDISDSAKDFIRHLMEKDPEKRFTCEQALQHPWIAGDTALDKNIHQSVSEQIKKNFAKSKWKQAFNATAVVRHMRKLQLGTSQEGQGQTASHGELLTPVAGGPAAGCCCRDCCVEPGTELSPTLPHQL
# Chain of UniProt Q99558 (whole entry, looked up): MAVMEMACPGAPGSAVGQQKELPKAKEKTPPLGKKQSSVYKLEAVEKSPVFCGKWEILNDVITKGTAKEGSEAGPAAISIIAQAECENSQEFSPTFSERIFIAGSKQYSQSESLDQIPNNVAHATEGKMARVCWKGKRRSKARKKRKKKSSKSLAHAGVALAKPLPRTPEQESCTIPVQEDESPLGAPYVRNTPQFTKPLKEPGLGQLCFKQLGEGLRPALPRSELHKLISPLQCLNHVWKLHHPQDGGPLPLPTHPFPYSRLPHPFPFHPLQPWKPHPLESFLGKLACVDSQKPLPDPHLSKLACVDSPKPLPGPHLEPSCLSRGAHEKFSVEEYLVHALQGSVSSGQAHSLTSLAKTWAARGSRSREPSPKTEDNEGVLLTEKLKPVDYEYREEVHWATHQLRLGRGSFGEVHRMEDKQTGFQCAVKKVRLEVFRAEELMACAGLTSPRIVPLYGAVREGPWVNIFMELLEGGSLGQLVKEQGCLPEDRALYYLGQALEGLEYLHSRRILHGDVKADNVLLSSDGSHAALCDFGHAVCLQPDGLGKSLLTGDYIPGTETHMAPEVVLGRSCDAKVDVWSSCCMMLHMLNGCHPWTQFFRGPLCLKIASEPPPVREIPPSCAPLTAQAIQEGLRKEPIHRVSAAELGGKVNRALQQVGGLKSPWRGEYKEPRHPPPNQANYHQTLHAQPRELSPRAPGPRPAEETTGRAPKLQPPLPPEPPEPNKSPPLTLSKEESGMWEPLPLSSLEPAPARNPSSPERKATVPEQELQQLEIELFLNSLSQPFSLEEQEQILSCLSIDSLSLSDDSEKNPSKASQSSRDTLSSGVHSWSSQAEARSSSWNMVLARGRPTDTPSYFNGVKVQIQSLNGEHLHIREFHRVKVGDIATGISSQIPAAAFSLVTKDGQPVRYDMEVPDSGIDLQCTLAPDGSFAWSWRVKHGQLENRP

# Set 1
# Cell line: A-375
# Tested at: 100 µM
# Time: 18 h
SMILES,viability [%]
COc1cc(NS(=O)(=O)c2ccc(N)cc2)nc(OC)n1,93.6
NS(=O)(=O)c1cc(C2(O)NC(=O)c3ccccc32)ccc1Cl (stereo not shown),87.5
CCOC(=O)CC(=O)N1CCSC1COc1ccccc1OC (stereo not shown),103
OC[C@@H](O)[C@@H](O[C@@H]1O[C@H](CO)[C@H](O)[C@H](O)[C@H]1O)[C@H](O)[C@@H](O)CO,96.4
C[N+](C)(C)CC(O)CC(=O)[O-] (racemic),95.5
O=C(OOC(=O)c1ccccc1)c1ccccc1,90.3
C[C@H](Cn1cnc2c(N)ncnc21)OCP(=O)(O)O,95.8
Cn1c(NCCN(CCO)CCCc2ccc([N+](=O)[O-])cc2)cc(=O)n(C)c1=O,92.1
C#C[C@]1(O)CC[C@H]2[C@@H]3CCc4cc(O)ccc4[C@H]3CC[C@@]21C,16.7
NNc1nnc(NN)c2ccccc12,64.3

# Set 2
# Structure (SMILES): CN(c1ccnc(CNc2nc(Nc3ccc4c(c3)CC(=O)N4)ncc2C(F)(F)F)n1)S(C)(=O)=O
# Technique: competition with immobilised ligand
# Tested at: 1 µM
target,test,remaining binding [%]
"Wee1-like protein kinase 2 (WEE2, Homo sapiens, UniProt P0C1S8)",cell-free assay,28
"Rho-associated protein kinase 2 (ROCK2, Homo sapiens, UniProt O75116)",cell-free assay,69
"Cyclin-dependent kinase 4, with cyclin D3 (CDK4, Homo sapiens, UniProt P11802)",cell-free assay,63
"Cyclin-dependent kinase 15 (CDK15, Homo sapiens, UniProt Q96Q40)",cell-free assay,63
"Epidermal growth factor receptor (EGFR, Homo sapiens, UniProt P00533, A750P/del747-749)",cell-free assay,75
"STE20/SPS1-related proline-alanine-rich protein kinase (STK39, Homo sapiens, UniProt Q9UEW8)",cell-free assay,100
"Cyclin-G-associated kinase (GAK, Homo sapiens, UniProt O14976)",cell-free assay,66
"Tyrosine-protein kinase Fer (FER, Homo sapiens, UniProt P16591)",cell-free assay,78
"Calcium/calmodulin-dependent protein kinase type 1 (CAMK1, Homo sapiens, UniProt Q14012)",cell-free assay,72
"Phosphatidylinositol 5-phosphate 4-kinase type-2 beta (PIP4K2B, Homo sapiens, UniProt P78356)",cell-free assay,4.8
"Receptor-type tyrosine-protein kinase FLT3 (FLT3, Homo sapiens, UniProt P36888)",cell-free assay,23
"Serine/threonine-protein kinase N2 (PKN2, Homo sapiens, UniProt Q16513)",cell-free assay,22
"Activin receptor type-2A (ACVR2A, Homo sapiens, UniProt P27037)",cell-free assay,100
"Mast/stem cell growth factor receptor Kit (KIT, Homo sapiens, UniProt P10721, D816H)",cell-free assay,44
"Dual specificity protein kinase CLK2 (CLK2, Homo sapiens, UniProt P49760)",binding,0
"Receptor-type tyrosine-protein kinase FLT3 (FLT3, Homo sapiens, UniProt P36888, D835Y)",cell-free assay,2
"Platelet-derived growth factor receptor beta (PDGFRB, Homo sapiens, UniProt P09619)",cell-free assay,69
"Ephrin type-B receptor 2 (EPHB2, Homo sapiens, UniProt P29323)",cell-free assay,81

# Set 3
# SMILES: O=C1c2ccccc2-c2n[nH]c3cccc1c23
# Effect on: enzyme activity
# Action: inhibitor
# Tested at: 0.5 µM
# Baseline: control
target,remaining activity [%]
"Serine/threonine-protein kinase Nek6 (NEK6, Homo sapiens, UniProt Q9HC98)",97.6
"Tyrosine-protein kinase FRK (FRK, Homo sapiens, UniProt P42685)",95.1
"Tyrosine-protein kinase JAK3 (JAK3, Homo sapiens, UniProt P52333)",74
"Activin receptor type-1B (ACVR1B, Homo sapiens, UniProt P36896)",101
"Ribosomal protein S6 kinase alpha-2 (RPS6KA2, Homo sapiens, UniProt Q15349)",80.3
"MAP kinase-activated protein kinase 2 (MAPKAPK2, Homo sapiens, UniProt P49137)",98.7
"Rhodopsin kinase GRK7 (GRK7, Homo sapiens, UniProt Q8WTQ7)",91.9
"Serine/threonine-protein kinase ULK2 (ULK2, Homo sapiens, UniProt Q8IYT8)",114
"Serine/threonine-protein kinase TAO2 (TAOK2, Homo sapiens, UniProt Q9UL54)",101
"Serine/threonine-protein kinase A-Raf (ARAF, Homo sapiens, UniProt P10398)",105
"Ephrin type-A receptor 3 (EPHA3, Homo sapiens, UniProt P29320)",94.2
"Mitogen-activated protein kinase kinase kinase 5 (MAP3K5, Homo sapiens, UniProt Q99683)",47.8
"Tyrosine-protein kinase Mer (MERTK, Homo sapiens, UniProt Q12866)",83.7
"Mitogen-activated protein kinase 3 (MAPK3, Homo sapiens, UniProt P27361)",102
"Macrophage-stimulating protein receptor (MST1R, Homo sapiens, UniProt Q04912)",103
"Serine/threonine-protein kinase TBK1 (TBK1, Homo sapiens, UniProt Q9UHD2)",81.4
"Dual specificity mitogen-activated protein kinase kinase 2 (MAP2K2, Homo sapiens, UniProt P36507)",94
"Fibroblast growth factor receptor 3 (FGFR3, Homo sapiens, UniProt P22607)",85.1
"Casein kinase I isoform gamma-2 (CSNK1G2, Homo sapiens, UniProt P78368)",87.8
"Casein kinase I isoform gamma-3 (CSNK1G3, Homo sapiens, UniProt Q9Y6M4)",117
"Fibroblast growth factor receptor 1 (FGFR1, Homo sapiens, UniProt P11362)",69.4
"Mitogen-activated protein kinase kinase kinase 14 (MAP3K14, Homo sapiens, UniProt Q99558)",94.2
"Angiopoietin-1 receptor (TEK, Homo sapiens, UniProt Q02763)",92.2

# Set 4
# Cell line: HH
# Tested at: 2 µM
# Time: 48 h
# Baseline: untreated
Structure (SMILES),viability [%]
O=C(c1ccc(F)c(F)c1Nc1ccc(I)cc1F)N1CC(O)([C@@H]2CCCCN2)C1,92.6
O=S(=O)(c1cccc2cnccc12)N1CCCNCC1,68.3
Clc1ccc(Nc2nnc(Cc3ccncc3)c3ccccc23)cc1,81.2
Cc1ccc(F)c(NC(=O)Nc2ccc(-c3cccc4[nH]nc(N)c34)cc2)c1,93.2
CNC(=O)c1nn(C)c2c1C(C)(C)Cc1cnc(Nc3ccc(N4CCN(C)CC4)cc3)nc1-2,56.9
Nc1nc(N)c2nc(-c3cccc(O)c3)c(-c3cccc(O)c3)nc2n1,91.6
Cc1c[nH]c2nc(Nc3ccc(N4CCN(C)CC4)c(F)c3)nc(-c3cccc(CC#N)c3)c12,27.8
CN1CC[C@H](c2c(O)cc(O)c3c(=O)cc(-c4ccccc4Cl)oc23)[C@H](O)C1,10.9
CN1CCC(Nc2nc(Nc3ccc(Oc4ccccc4)cc3)c3c(=O)[nH]cc(Br)c3n2)CC1,91.3
COc1ccc(CNC(=O)Nc2ncc([N+](=O)[O-])s2)cc1,81.7

# A few entries again (set 2):
target,test,remaining binding [%]
"Receptor-type tyrosine-protein kinase FLT3 (FLT3, Homo sapiens, UniProt P36888, D835Y)",cell-free assay,2
"Receptor-type tyrosine-protein kinase FLT3 (FLT3, Homo sapiens, UniProt P36888)",cell-free assay,23
"Cyclin-dependent kinase 4, with cyclin D3 (CDK4, Homo sapiens, UniProt P11802)",cell-free assay,63
"Mast/stem cell growth factor receptor Kit (KIT, Homo sapiens, UniProt P10721, D816H)",cell-free assay,44
"Platelet-derived growth factor receptor beta (PDGFRB, Homo sapiens, UniProt P09619)",cell-free assay,69
"Serine/threonine-protein kinase N2 (PKN2, Homo sapiens, UniProt Q16513)",cell-free assay,22
"Dual specificity protein kinase CLK2 (CLK2, Homo sapiens, UniProt P49760)",binding,0
"Wee1-like protein kinase 2 (WEE2, Homo sapiens, UniProt P0C1S8)",cell-free assay,28
